# Results of several laboratories.
# Protocols differ between the studies behind these lines. Values joined by “and” are separate records of one study, mostly repeats; a detail may differ. ± marks the error that the study gave.
# chemotaxis protein CheW: chemotaxis protein CheW (Vibrio campbellii, UniProt A0A0A3EMQ5)
# KAI2: KAI2 (Arabidopsis thaliana, UniProt Q9SZU7)
# UniProt Q9SZU7, sequence (whole entry, unmodified, looked up): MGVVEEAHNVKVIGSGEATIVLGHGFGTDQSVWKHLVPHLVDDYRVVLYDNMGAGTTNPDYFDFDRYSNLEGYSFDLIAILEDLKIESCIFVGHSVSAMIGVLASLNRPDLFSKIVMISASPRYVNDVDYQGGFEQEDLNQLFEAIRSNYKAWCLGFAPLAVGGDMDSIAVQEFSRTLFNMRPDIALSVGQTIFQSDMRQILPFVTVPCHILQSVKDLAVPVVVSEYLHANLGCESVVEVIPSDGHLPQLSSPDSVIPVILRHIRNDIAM
# CA2: Carbonic anhydrase 2 (CA2, Bos taurus, UniProt P00921)
# UniProt P00921, sequence (whole entry, looked up): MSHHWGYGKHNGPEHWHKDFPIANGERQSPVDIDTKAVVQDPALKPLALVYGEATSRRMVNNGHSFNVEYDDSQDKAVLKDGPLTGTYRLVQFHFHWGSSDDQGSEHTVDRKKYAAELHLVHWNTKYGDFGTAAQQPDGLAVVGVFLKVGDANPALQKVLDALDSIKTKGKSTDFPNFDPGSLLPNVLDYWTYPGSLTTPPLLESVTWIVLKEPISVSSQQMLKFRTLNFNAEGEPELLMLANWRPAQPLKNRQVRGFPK
# KRAS G12V GDP-bound: GTPase KRas, GDP-bound (KRAS, Homo sapiens, UniProt P01116, G12V)
# FKBP5: Peptidyl-prolyl cis-trans isomerase FKBP5 (FKBP5, Homo sapiens, UniProt Q13451)
# UniProt Q13451, sequence (whole entry, looked up): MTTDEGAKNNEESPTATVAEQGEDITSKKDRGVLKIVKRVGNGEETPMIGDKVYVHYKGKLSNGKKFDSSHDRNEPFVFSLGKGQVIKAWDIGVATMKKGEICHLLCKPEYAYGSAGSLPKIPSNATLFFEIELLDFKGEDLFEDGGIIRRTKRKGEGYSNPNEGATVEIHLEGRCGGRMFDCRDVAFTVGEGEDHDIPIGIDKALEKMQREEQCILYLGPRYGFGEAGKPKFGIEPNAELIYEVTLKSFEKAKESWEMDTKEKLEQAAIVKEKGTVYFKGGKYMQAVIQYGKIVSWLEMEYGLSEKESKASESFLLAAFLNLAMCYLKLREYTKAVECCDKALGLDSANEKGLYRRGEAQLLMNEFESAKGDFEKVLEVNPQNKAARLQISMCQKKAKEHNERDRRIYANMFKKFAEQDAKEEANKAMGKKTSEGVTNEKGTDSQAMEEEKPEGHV
# UniProt Q01201, sequence (whole entry, looked up): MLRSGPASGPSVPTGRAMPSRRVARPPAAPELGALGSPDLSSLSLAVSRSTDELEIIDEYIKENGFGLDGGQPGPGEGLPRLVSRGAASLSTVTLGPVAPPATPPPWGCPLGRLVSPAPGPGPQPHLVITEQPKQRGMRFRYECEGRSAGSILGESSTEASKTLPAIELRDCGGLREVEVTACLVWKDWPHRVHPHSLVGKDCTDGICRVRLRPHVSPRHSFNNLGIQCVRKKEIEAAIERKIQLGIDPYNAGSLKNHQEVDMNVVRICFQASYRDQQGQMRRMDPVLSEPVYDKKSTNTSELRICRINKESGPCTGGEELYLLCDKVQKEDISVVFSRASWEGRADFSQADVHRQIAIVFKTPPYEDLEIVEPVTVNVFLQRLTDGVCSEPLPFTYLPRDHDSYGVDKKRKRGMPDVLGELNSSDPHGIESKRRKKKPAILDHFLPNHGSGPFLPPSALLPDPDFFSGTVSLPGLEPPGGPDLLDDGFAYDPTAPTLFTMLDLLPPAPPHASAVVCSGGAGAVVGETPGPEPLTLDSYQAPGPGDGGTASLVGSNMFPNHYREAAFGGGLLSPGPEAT
# UniProt P04756, sequence (whole entry, unmodified, looked up): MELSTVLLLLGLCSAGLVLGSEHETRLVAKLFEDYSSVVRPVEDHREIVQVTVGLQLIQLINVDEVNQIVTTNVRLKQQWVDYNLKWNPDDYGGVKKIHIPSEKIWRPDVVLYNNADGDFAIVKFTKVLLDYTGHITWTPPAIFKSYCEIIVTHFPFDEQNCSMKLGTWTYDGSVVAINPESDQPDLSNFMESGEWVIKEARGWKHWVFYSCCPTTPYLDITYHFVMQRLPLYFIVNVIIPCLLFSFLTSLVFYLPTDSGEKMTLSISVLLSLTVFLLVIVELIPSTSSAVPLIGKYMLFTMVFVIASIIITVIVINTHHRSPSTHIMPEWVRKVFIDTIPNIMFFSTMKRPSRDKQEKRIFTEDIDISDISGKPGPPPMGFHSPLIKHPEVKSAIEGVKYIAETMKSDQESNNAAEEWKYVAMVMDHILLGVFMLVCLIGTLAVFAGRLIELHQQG
# UniProt P31725, sequence (whole entry, looked up): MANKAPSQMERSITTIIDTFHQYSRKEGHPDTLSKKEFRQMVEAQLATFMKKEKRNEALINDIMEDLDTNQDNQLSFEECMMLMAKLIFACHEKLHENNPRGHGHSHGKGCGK
# UniProt Q91XB0, sequence (whole entry, looked up): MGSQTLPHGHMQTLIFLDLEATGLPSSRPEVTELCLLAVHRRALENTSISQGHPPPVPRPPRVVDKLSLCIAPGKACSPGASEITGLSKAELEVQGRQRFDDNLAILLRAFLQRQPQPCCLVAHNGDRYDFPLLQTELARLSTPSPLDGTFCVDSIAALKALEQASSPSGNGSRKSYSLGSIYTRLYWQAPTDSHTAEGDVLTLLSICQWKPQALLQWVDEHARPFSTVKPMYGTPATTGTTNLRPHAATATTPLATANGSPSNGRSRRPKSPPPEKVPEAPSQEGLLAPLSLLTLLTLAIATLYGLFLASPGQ
# UniProt P02716, sequence (whole entry, unmodified, looked up): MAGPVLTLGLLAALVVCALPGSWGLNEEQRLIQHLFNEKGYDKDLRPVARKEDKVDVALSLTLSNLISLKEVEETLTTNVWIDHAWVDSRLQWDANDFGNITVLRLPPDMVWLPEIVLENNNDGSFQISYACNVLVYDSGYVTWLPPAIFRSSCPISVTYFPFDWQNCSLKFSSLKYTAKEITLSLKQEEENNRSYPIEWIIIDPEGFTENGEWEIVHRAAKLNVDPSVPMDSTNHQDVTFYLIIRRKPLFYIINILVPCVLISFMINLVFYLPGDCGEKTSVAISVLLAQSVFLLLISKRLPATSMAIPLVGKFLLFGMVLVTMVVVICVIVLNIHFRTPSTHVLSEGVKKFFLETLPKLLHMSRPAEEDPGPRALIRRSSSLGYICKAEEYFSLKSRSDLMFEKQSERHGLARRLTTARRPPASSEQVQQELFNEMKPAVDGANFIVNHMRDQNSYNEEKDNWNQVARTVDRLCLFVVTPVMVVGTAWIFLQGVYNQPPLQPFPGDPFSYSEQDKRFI
# UniProt P17706, sequence (whole entry, looked up): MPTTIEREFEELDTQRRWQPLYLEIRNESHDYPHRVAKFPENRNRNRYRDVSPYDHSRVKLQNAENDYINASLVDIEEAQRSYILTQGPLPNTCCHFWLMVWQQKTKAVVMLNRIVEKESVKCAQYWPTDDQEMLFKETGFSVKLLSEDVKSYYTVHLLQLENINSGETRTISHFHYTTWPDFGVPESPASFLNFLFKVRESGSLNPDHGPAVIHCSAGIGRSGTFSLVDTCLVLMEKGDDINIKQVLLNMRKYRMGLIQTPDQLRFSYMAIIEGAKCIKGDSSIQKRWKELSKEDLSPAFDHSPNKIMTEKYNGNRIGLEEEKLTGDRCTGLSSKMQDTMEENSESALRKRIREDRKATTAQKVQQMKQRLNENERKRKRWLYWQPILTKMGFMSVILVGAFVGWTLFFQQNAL
# UniProt P19484, sequence (whole entry, looked up): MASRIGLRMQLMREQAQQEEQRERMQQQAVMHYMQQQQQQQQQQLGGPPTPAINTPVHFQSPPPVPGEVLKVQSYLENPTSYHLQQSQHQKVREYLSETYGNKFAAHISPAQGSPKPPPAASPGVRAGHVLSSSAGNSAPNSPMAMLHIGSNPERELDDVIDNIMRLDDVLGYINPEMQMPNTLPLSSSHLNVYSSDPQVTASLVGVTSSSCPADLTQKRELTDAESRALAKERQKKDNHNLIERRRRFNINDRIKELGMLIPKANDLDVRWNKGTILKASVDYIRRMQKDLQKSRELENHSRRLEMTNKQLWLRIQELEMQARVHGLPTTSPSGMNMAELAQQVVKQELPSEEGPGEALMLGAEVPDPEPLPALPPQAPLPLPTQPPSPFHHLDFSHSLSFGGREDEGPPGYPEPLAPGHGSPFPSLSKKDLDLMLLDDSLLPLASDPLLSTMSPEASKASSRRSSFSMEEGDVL
# UniProt P51812, sequence (whole entry, looked up): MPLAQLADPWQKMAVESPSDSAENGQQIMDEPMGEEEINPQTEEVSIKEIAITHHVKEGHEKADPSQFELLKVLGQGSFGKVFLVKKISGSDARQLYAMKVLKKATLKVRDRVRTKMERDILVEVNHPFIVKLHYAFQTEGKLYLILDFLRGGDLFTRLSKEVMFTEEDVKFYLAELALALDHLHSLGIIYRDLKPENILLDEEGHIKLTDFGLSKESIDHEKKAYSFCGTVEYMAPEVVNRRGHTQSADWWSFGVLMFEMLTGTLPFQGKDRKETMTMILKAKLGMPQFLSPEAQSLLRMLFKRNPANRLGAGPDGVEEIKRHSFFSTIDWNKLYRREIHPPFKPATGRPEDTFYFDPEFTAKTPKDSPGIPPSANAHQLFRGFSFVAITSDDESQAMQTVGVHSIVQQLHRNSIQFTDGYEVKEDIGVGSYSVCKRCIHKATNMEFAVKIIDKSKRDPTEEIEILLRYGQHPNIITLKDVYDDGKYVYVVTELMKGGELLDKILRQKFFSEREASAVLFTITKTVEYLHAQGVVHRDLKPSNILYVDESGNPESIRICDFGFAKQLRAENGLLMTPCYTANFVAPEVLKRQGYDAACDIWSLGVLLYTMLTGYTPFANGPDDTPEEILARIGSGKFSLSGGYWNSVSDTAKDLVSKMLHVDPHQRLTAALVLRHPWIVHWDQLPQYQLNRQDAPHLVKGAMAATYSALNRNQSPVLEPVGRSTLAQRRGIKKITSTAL
# UniProt P11086, sequence (whole entry, looked up): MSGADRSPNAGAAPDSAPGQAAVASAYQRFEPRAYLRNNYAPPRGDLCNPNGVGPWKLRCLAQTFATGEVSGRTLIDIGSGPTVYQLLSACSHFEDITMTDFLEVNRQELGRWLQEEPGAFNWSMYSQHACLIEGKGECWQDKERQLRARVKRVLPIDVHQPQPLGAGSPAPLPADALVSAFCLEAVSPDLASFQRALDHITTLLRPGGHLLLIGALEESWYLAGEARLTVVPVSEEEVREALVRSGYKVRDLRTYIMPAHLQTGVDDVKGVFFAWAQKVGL
Compound,target,assay,system,setting,Kd
CNC[C@H](O)c1cccc(O)c1,chemotaxis protein CheW,"binding, microscale thermophoresis",PBS with 0.05% Tween 20,"room temperature, His-tagged protein, labelled",300 ± 250 nM
O=C(N1CCc2cccc(Cl)c21)n1ccnn1,KAI2,isothermal titration calorimetry,,,166000 nM and 192000 nM
CN(C)c1ccc2c3c(cccc13)C(=O)N(CCc1ccc(S(N)(=O)=O)cc1)C2=O,CA2,binding,,,160 nM
C=CC(=O)N1CC2(CCN(c3nc(OC4CCN(CCCOC)CC4)nc4c(OCC(F)(F)F)c(-c5c(C)ccc6[nH]ncc56)c(C5CC5)cc34)CC2)C1,KRAS G12V GDP-bound,SPR,,,40700 ± 1500 nM
C=C[C@H]1CN(Cc2ccccn2)C(=O)[C@@H]2CCC[C@H]1N2[S@@+]([O-])c1cc(Cl)cc(Cl)c1,FKBP5,"ligand displacement, FP",,,4780 nM
NS(=O)(=O)c1ccc(CN2C(=O)c3ccc(N4CCOCC4)cc3C2=O)cc1,CA2,binding,,,300 nM
CC1=NN(c2ccc(C)c(C)c2)C(=O)/C1=N\Nc1cccc(-c2cccc(C(=O)NCCOCCOCCNC(=O)CCCC[C@@H]3SC[C@@H]4NC(=O)N[C@@H]43)c2)c1O,"Transcription factor EB, bHLH-LZ domain (TFEB, Homo sapiens, UniProt P19484)","binding, SPR",,compound immobilised on SA chip,304 nM
CC(C)(C)n1cc(CN(Cc2cn(CCOCCOCCOCCOCCOCCO)nn2)Cc2cn(C(C)(C)C)nn2)nn1,Cu(I),"binding, bicinchoninic acid competition",,"4000 µM, together with: bicinchoninic acid 40 µM",0.23 nM
C=CC1CN(Cc2ccccn2)C(=O)C2CCCC1N2S(=O)(=O)c1cc(Cl)cc(Cl)c1 (stereo not shown),FKBP5,"ligand displacement, FP",,,97 nM
CC1=NN(c2ccccc2)C(=O)C1,"Protein S100-A9 (S100a9, Mus musculus, UniProt P31725)",SPR,,"4 °C, compound immobilised",16.8 nM
Cc1cccc2c1N(C(=O)n1ccnc1)CC2,KAI2,"binding, ITC",,,14900 nM
CN(C)c1ccc2c(c1)C(=O)N(c1ccc(S(N)(=O)=O)cc1)C2=O,CA2,binding,,,240 nM
CN(C)c1ccc(/C=C/c2cc(/C=C3\Sc4ccccc4N3CCCN3CCCC3)c3ccccc3[n+]2C)cc1,VEGF DNA,isothermal titration calorimetry,,"pH 7.4, 25 °C, 2% DMSO",16600 nM
C=C[C@H]1CN(Cc2ccccn2)C(=O)[C@@H]2CCC[C@H]1N2Sc1cc(Cl)cc(Cl)c1,FKBP5,"ligand displacement, FP",,,> 40000 nM
O=C(N1CCc2cccc([N+](=O)[O-])c21)n1ccnn1,KAI2,isothermal titration calorimetry,,,709000 nM and 667000 nM and 758000 nM
CN(C)c1ccc2c(c1)C(=O)N(CCc1ccc(OS(N)(=O)=O)cc1)C2=O,CA2,binding,,,160 nM
CC(C)(C)n1cc(CN(Cc2cn(CC(=O)O)nn2)Cc2cn(C(C)(C)C)nn2)nn1,Cu(I),"binding, bicinchoninic acid competition",,"2000 µM, together with: bicinchoninic acid 40 µM",0.137 nM
CC1(C)C[C@@H](Nc2cccc(-c3sc(C(=O)O)c(OCC(=O)O)c3Cl)c2)CCN1S(=O)(=O)Cc1cccc(NC(=O)CN2CCC(c3ccc4c(c3)oc(=O)n4C3CCC(=O)NC3=O)CC2)c1 (stereo partly shown),"PTPN2 (Homo sapiens, UniProt P17706)","binding, BLI",,,85 nM
Nc1ncnc2c1ncn2C1OC(CN(CCCC2CNCc3c2ccc(Cl)c3Cl)CCC(N)C(=O)O)C(O)C1O (mixture of isomers),"PNMT (Homo sapiens, UniProt P11086)",ITC,,"pH 8.0, 25 °C, second site, without SAH",282 ± 3 nM
C=CC(=O)N1C[C@H](C)N(c2nc(OC[C@@]34CCCN3C[C@H](F)C4)nc3c(F)c(-c4ccc(F)c5sc(N)c(C#N)c45)c(C(F)(F)F)cc23)C[C@H]1C,KRAS G12V GDP-bound,SPR,,,3.28 ± 1.1 nM
O=C1C2CCCC(C(C(O)CO)CN1Cc1ccccn1)N2S(=O)(=Nc1ccccc1)c1cc(Cl)cc(Cl)c1 (stereo not shown),FKBP5,"ligand displacement, FP",,,> 40000 nM
Cc1cccc2c1N(C(=O)n1ccnn1)CC2,"KAI2 (Arabidopsis thaliana, UniProt Q9SZU7, A219S)",ITC,,A219S mutant,10300 nM and 18600 nM and 13200 nM
NC[C@H](O)c1ccc(O)c(O)c1,chemotaxis protein CheW,"binding, microscale thermophoresis",PBS with 0.05% Tween 20,"room temperature, His-tagged protein, labelled",740 ± 420 nM
C[n+]1c(/C=C/c2ccc(N(c3ccccc3)c3ccccc3)cc2)cc(/C=C2\Sc3ccccc3N2CCCN2CCCC2)c2ccccc21,Pu27 DNA,isothermal titration calorimetry,,"pH 7.4, 25 °C, 2% DMSO",2530 nM
C[N+](C)(C)CCOC(N)=O,"Chrnd/Chrna1/Chrne (Mus musculus, UniProt P02716+P04756+P20782, G173K/S470W)","resting state binding, agonist, single-channel kinetics",,,690 nM
O=C(Nc1ccc(C(=O)Nc2ccc3c(O)cc(S(=O)(=O)O)cc3c2)cc1)c1ccccc1,"Trex1 (Mus musculus, UniProt Q91XB0)","binding, fluorescence",,,39100 nM
Cc1cccc2c1N(C(=O)n1nccn1)CC2,KAI2,isothermal titration calorimetry,,,248000 nM and 214000 nM and 168000 nM
C=CC(=O)N1CCCN(C(=O)c2cc(Sc3cnc(NC(=O)C4CC4)s3)c(C)cc2OC)C[C@H]1C,"BLK (Homo sapiens, UniProt P51451)","binding, competition with immobilised ligand",,,4700 nM
Cc1c[nH]c2nccc(-c3ccc(C(=O)N[C@@H]4c5c(F)cc(C(F)F)cc5C[C@@H]4O)cn3)c12,"Ribosomal protein S6 kinase alpha-3, N-terminal kinase domain (RPS6KA3, Homo sapiens, UniProt P51812)","binding, competition with immobilised ligand",,,470 nM
C/C(=N\Nc1ncnc2sc3c(c12)CCCC3)c1cc(O)ccc1O,"Transcription factor RelB (RELB, Homo sapiens, UniProt Q01201)","binding, microscale thermophoresis",,,1100 nM and 1110 nM
O=C(c1ccco1)N1CCc2ccccc21,KAI2,ITC,,mean of replicates,240000 nM
NS(=O)(=O)c1ccc(CCN2C(=O)c3ccc(N4CCOCC4)cc3C2=O)cc1,CA2,binding,,,370 nM
O=C1[C@@H]2CCC[C@H]([C@@H](C(O)CO)CN1Cc1ccccn1)N2S(=O)(=O)c1cc(Cl)cc(Cl)c1 (stereo partly shown),FKBP5,"ligand displacement, FP",,,30 nM
Cc1cc(C#CC2(O)CCCCC2)cc2c1cc(C(=O)O)n2-c1cccc(Cl)c1,"Microphthalmia-associated transcription factor (Homo sapiens, UniProt O75030)","binding, ITC",,,385 nM

# For quick reference, copied from above:
Compound,target,assay,system,setting,Kd
CC1(C)C[C@@H](Nc2cccc(-c3sc(C(=O)O)c(OCC(=O)O)c3Cl)c2)CCN1S(=O)(=O)Cc1cccc(NC(=O)CN2CCC(c3ccc4c(c3)oc(=O)n4C3CCC(=O)NC3=O)CC2)c1 (stereo partly shown),"PTPN2 (Homo sapiens, UniProt P17706)","binding, BLI",,,85 nM
Nc1ncnc2c1ncn2C1OC(CN(CCCC2CNCc3c2ccc(Cl)c3Cl)CCC(N)C(=O)O)C(O)C1O (mixture of isomers),"PNMT (Homo sapiens, UniProt P11086)",ITC,,"pH 8.0, 25 °C, second site, without SAH",282 ± 3 nM
C=CC(=O)N1C[C@H](C)N(c2nc(OC[C@@]34CCCN3C[C@H](F)C4)nc3c(F)c(-c4ccc(F)c5sc(N)c(C#N)c45)c(C(F)(F)F)cc23)C[C@H]1C,KRAS G12V GDP-bound,SPR,,,3.28 ± 1.1 nM
O=C1C2CCCC(C(C(O)CO)CN1Cc1ccccn1)N2S(=O)(=Nc1ccccc1)c1cc(Cl)cc(Cl)c1 (stereo not shown),FKBP5,"ligand displacement, FP",,,> 40000 nM
